# Published values of several laboratories.
# Every numbered part comes from another study and shows a few of its results, in no order. Changes are numbered by the printed parent chain.

# Sample 1 — method: RNA Bind-n-Seq; form: RNA; medium: in vitro; tested at: 1 µM; notes: whole 134-nt RNA, ends assumed; added: 150 mM KCl; baseline: input library; direction: higher = stronger binding
# Target: Ras GTPase-activating protein-binding protein 1, RRM domain (G3BP1, Homo sapiens, UniProt Q13283)
# Chain of UniProt Q13283 (whole entry, looked up): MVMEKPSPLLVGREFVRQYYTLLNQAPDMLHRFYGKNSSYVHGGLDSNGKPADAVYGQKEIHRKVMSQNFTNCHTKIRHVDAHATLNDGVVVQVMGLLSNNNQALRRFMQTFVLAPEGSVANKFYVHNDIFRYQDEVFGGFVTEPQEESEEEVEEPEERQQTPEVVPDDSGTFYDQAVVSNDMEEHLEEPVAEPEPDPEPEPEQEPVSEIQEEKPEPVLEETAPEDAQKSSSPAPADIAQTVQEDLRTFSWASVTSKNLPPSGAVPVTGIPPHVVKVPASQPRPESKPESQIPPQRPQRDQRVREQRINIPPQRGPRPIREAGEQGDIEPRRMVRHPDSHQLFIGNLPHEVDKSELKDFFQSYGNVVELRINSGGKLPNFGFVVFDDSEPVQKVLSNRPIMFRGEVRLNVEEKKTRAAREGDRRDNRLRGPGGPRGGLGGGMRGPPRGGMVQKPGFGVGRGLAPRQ
# Shared flanks, not repeated: GGGAGUUCUACAGUCCGACGAUC … UGGAAUUCUCGGGUGUCAAGG
Oligonucleotide,log2 enrichment
GUCCUGUGCUACACAUCGUAUGUACCGAAUCGGAAAAAAAGGUUUUUUUGGUUUUUGGAAAGUAUUAUGUUACGCCGUUCGGAUCUGCAC,-0.426
GCAGGAAGUAAAAACAAAUGGAAAUGCUUCGGAUAGUGGCAGGGGUGGGGGAUGCUAAGGAAAGGGUGGGAUGGGAGUGGGUAAAGAGUU,0.773
CUGUGCUACACAUCGUAUGUACCGAAUCGGGGAAAAAGGGGUUUUUGGGGUUUUUUUGGGGAAAGUAUUAUGUUACGCCGUUCGGAUCUG,1.18
UAACUUUAGAGGAGGAUCUGAUGGAUAUGGCAGUGGACGUGGAUUUGAGGAUGGCUAUAAUGGGUAUGGAGGAGGACCUGGAGGUGGCAA,-0.497
CUCAAGUCCUGUGCUACACAUCGUAUGUACCGAAUCGGAAAAAAAGGAGGUGGAAAGUAUUAUGUUACGCCGUUCGGAUCUGCACUUCCA,-0.196
UCAAGUCCUGUGCUACACAUCGUAUGUACCGAAUCGGGAAAGGGAAAGGAAAGGAAAGUAUUAUGUUACGCCGUUCGGAUCUGCACUUCC,-0.256
CCUCAAGUCCUGUGCUACACAUCGUAUGUACCGAAUCGGCCGGCCGGCCGGGGAAAGUAUUAUGUUACGCCGUUCGGAUCUGCACUUCCA,-0.282
CUGUGCUACACAUCGUAUGUACCGAAUCGGGUUUUUUUGGGAAAAAAAGGGAAAAAAAGGGAAAGUAUUAUGUUACGCCGUUCGGAUCUG,-0.361
CUCAAGUCCUGUGCUACACAUCGUAUGUACCGAAUCGGGUGGGUUUGGGAGGGAAAGUAUUAUGUUACGCCGUUCGGAUCUGCACUUCCA,0.551

# Sample 2 — method: protein-binding microarray; form: double-stranded DNA, one strand shown; medium: in vitro; tested at: 250 nM; notes: 60-bp whole probe; added: salmon DNA 0.4 mg/ml; baseline: random background probes; direction: higher = stronger binding; shared flanks, not repeated: GCCTAGCAC … GTCTTGATTCGCTTGACGCTGCTG
# Target: Interferon regulatory factor 7, full length, phosphomimetic (IRF7, Homo sapiens, UniProt Q92985, residues 1-503, S101K/S471D/S472D/S475D/S476D/S477D/S483D/S484D/S487D)
# Chain of UniProt Q92985 (whole entry, unmodified, looked up): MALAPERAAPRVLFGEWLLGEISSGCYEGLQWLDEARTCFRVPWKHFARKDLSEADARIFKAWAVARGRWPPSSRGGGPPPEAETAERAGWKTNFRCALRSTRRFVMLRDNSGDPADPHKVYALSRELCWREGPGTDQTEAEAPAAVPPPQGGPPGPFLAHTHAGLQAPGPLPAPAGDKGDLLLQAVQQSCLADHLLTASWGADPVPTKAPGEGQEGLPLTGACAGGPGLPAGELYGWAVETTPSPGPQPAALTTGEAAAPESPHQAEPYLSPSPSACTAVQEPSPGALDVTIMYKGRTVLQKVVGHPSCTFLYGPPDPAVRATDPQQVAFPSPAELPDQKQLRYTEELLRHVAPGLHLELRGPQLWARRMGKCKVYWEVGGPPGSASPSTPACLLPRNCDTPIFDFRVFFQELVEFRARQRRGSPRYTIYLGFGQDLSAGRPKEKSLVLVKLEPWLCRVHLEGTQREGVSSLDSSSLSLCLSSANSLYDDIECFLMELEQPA
Oligonucleotide,log fluorescence
TTAGGACTCGGTTTCGGTTAGTGCTAG,11.2 z-score
GACGGTCTCTGACTGGGGACGTGCTAG,-0.172 z-score
GTGGGGGGTGTGAGTGGGTGGTGCTAG,4.26 z-score
TTATGACTGGGGTTTCGGTTAGTGCTA,5.43 z-score
GACGATTGCGGGTTTCGAGACGTGCTA,2.22 z-score
TTAGGTTCCGGGACTGGGTTAGTGCTA,0.712 z-score
TCATGTTGTTTTTTGGTACTGTGCTAG,0.649 z-score
GACGGTTACGGGTATCGGGACGTGCTA,-0.153 z-score
TTTTTTGTATTTTTGATAGAGTGCTAG,0.947 z-score
GACGGTCTCCTTCTCCAGACGTGCTAG,-0.0752 z-score
TCACCTCTACCTCCTGGGACTGTGCTA,-0.016 z-score
TTAGGTATCGGTTTTGGTTAGTGCTAG,4.92 z-score
GACGGTTTCGGTTTTCGGGACGTGCTA,13.9 z-score
GACGGACTGCTTCACCTGACGTGCTAG,-0.315 z-score
GACGGACTGGGTCTCGGGATGTGCTAG,-0.362 z-score
GACGGTTTCGGACTGGCGACGTGCTAG,3.85 z-score
TTTCCTCTTTCTTTGCTTCAGTGCTAG,4.66 z-score

# Sample 3 — target: CCNA2, cyclin fold, Cln2 fusion (human); method: yeast growth competition, sequencing; medium: yeast; notes: strong parent motif; baseline: not given; direction: higher = stronger binding
# Starting sequence: CDC25A docking peptide (human); PPHRRRLLFACSP
Variant,normalised enrichment score
PPHRTRLLFACSP [R5T],0.851
RPHRRRLLFACSP [P1R],2.69
PPHRRRLLFGCSP [A10G],3.06
PPHARRLLFACSP [R4A],3.43
PPHRRRLLDACSP [F9D],0.108
PPHRRRLLTACSP [F9T],1.93
PPWRRRLLFACSP [H3W],2.85
PPHRYRLLFACSP [R5Y],1.07
EPHRRRLLFACSP [P1E],2.7
PPHRRALLFACSP [R6A],1.48
PPHRRRVLFACSP [L7V],1.18
PPHRRRSLFACSP [L7S],1.27
DPHRRRLLFACSP [P1D],2.03
PPHRRNLLFACSP [R6N],1.46
PPHRRRLLEACSP [F9E],0.794
PPHRRVLLFACSP [R6V],1.46
PPHRRRLLFACYP [S12Y],2.01
PPHRRRLLFAISP [C11I],2.26
PPHRRRLLFACSW [P13W],1.27
FPHRRRLLFACSP [P1F],1.57
PPHRRRLLFACCP [S12C],1.99
PPHRRRLDFACSP [L8D],4.42
PPHRRRLLFSCSP [A10S],2.69
GPHRRRLLFACSP [P1G],2.11
PPHRRRLLFANSP [C11N],2.55

# Sample 4 — method: RNA Bind-n-Seq; form: RNA; medium: in vitro; tested at: 365 nM; baseline: no-protein control; direction: higher = stronger binding
# Target: RNA binding protein fox-1 homolog 2, RRM domain, GST-SBP tag (RBFOX2, Homo sapiens, UniProt O43251-10, residues 100-194)
# Notes: natural RNA segment, single round, ends assumed
# Shared flanks, not repeated: GGGAGUUCUACAGUCCGACGAUC … UGGAAUUCUCGGGUGCCAA
# Residues (chain): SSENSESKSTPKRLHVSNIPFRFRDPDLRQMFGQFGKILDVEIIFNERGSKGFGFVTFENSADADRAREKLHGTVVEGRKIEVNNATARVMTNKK
Oligonucleotide,RBNS enrichment (R)
ACUCCGACCUUUUUCUUUGAACAUGCAUGCUGCUGGAAUAUGUAUAAAUCAGAACUAGCAGAAGUAGCAGAGUGAUGGGAGCAAAAUAGGCACUGAAUUCGUCAACUCUU,0.497
GGUGGCCCGCAUGCUUGGGAGAGUUAAUAGGAAGAUUGAGUUCAAACGCUUAACCUUCUGUUAGCCAAUAUAUAAUUAAUGCAUGCUACUCCAUGAAUUUCUGCCUAUGA,3.45
GAAGCCUGUGCACAAGUAGCAUGGGCACCUGGAAAACUUGAACCUGGAAGGAAAGAUUCCCAGCAUGCAGUGCUCUCUCCUCCAGGGAGGAGAAUGUGUGCUGGGCUAUG,0.421
AAUGUGCUUCGCAAGCCAGGCUAUCUUCCAAGGAAGGCAGACAGUGGGAGAGCAGAGGGACUGACUGCAGGCAAGCACAUUGAAGAAAGACACUGGCGGGUUUCCCCACC,0.574
CAGCCUCUGUGCCAUGCAGUGAGGGCUGUGGGUUCUGCCUGUUAGAACACUUCAGUAGCUAGCCCGUCUGGUUGAUUGUGCAUGGAACUGACAUGUUAACACCUGAUCAC,1.45
GUCAGUUGCAAUGUGCAAGACAGGCUGCUUGCCGGGCCGCCCUCGGAACAUCUGGCCCAGCAGGCCCAGACUGUAUCCAUCCAAGUUCCCGUUGUAUCCAGAGUUCUUAG,0.269
CUUUCUGCCUGGGAUGUCUGCUGCAAAAGCAGUGACCUCUGACCCCUGGUGACCUUUGCUCUCGGCACCGGGCCUGUUUCCUUUGCUUUGAGUGCCUUUUUGAACGCUGC,1.17
AGUGCUGAGAUUACAGGCGUGAGCCUCCGCGCCCGGCCCCCUUGCAGUUCUCUCUGAUUUGGUUUGUUCUGUCUCAGGCUUCUGUGGCAGGACUGGCCCAGGGAGGAGGA,0.215

# Repeated from above (sample 2):
Oligonucleotide,log fluorescence
GACGGTTTCGGACTGGCGACGTGCTAG,3.85 z-score
TTAGGACTCGGTTTCGGTTAGTGCTAG,11.2 z-score
TTTTTTGTATTTTTGATAGAGTGCTAG,0.947 z-score
TCACCTCTACCTCCTGGGACTGTGCTA,-0.016 z-score
GACGGTCTCCTTCTCCAGACGTGCTAG,-0.0752 z-score
TCATGTTGTTTTTTGGTACTGTGCTAG,0.649 z-score
TTAGGTTCCGGGACTGGGTTAGTGCTA,0.712 z-score
GACGATTGCGGGTTTCGAGACGTGCTA,2.22 z-score
